# Assay results pooled from the literature.
# Compare with care: the assays were run in different laboratories. Numbers after ± are the reported error.
# Chain of UniProt P21554 (whole entry, unmodified, looked up): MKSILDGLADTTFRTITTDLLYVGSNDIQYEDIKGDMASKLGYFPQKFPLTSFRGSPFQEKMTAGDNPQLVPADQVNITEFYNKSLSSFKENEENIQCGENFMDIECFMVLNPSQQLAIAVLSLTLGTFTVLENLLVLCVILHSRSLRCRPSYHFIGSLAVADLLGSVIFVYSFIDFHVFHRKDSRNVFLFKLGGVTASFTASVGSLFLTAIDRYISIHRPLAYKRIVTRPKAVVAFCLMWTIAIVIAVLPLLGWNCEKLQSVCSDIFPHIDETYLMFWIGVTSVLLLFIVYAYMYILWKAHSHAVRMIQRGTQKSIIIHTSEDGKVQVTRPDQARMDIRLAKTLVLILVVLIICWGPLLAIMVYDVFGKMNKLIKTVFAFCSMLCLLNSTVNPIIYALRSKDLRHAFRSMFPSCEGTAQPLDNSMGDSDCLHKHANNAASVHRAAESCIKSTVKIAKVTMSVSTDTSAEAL
# Chain of UniProt Q15059 (whole entry, unmodified, looked up): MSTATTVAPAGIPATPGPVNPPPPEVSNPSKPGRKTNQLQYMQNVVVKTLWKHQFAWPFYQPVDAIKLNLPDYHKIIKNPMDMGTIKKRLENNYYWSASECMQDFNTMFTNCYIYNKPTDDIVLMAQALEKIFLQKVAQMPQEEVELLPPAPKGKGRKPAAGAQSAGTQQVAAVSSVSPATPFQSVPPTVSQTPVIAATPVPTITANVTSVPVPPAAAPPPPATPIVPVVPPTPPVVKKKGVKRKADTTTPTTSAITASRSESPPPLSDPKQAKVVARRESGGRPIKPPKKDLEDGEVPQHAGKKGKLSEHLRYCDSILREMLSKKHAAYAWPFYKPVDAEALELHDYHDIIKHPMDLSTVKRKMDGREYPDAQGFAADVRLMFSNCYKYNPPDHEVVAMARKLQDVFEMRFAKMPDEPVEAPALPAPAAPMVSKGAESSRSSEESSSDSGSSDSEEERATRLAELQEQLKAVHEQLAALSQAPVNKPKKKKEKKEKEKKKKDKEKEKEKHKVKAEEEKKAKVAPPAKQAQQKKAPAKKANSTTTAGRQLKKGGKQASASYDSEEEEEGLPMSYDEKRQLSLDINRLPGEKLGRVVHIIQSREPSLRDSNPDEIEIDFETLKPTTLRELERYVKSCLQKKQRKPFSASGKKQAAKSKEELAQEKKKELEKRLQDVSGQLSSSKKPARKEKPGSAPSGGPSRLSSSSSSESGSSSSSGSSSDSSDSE
# Chain of UniProt Q15910 (whole entry, looked up): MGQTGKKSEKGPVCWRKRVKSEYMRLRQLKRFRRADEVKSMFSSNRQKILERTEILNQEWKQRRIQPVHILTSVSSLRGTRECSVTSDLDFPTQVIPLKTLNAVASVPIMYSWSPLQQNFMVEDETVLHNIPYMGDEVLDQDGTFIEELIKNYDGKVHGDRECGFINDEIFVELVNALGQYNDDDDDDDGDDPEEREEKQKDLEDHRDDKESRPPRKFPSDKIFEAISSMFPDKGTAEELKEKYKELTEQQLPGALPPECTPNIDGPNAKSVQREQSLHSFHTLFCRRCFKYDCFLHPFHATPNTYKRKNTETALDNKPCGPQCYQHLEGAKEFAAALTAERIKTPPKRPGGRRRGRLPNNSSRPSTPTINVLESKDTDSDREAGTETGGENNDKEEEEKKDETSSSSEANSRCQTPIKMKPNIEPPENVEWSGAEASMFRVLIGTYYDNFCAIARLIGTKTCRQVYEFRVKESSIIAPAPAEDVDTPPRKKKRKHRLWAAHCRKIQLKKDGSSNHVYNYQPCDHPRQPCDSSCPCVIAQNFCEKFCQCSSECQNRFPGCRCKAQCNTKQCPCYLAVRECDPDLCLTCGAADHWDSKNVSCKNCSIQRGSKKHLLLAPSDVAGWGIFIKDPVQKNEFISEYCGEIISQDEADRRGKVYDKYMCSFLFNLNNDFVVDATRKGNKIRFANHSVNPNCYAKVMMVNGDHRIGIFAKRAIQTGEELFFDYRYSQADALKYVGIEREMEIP
# Chain of UniProt P36896 (whole entry, looked up): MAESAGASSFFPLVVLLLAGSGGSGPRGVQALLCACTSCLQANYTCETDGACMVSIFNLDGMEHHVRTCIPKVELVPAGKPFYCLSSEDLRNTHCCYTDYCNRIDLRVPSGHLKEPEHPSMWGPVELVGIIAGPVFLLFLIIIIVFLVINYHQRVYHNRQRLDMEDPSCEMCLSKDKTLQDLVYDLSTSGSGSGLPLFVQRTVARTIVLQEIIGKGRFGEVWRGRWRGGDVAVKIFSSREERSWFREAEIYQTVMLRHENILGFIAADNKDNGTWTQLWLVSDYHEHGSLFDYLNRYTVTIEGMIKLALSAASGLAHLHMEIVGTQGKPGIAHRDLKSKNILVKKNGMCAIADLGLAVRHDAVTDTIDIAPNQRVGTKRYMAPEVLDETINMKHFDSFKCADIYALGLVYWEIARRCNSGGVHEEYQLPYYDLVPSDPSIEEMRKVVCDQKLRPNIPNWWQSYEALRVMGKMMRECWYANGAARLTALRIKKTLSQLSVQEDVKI
# Chain of UniProt P07948 (whole entry, looked up): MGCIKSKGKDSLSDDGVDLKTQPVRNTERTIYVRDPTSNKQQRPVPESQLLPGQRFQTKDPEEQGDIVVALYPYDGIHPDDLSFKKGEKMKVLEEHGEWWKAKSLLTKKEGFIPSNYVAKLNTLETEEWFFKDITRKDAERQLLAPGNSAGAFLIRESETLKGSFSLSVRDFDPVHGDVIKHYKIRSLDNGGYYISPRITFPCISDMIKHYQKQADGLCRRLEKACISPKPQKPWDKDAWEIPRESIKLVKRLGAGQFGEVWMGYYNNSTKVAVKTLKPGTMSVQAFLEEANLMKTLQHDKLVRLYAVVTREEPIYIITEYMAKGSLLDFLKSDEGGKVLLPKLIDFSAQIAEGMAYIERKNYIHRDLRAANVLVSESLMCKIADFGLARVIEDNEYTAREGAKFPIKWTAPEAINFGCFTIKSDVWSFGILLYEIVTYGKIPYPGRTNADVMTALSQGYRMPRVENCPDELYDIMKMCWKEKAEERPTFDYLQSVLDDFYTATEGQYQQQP
# Chain of UniProt Q9HC98 (whole entry, looked up): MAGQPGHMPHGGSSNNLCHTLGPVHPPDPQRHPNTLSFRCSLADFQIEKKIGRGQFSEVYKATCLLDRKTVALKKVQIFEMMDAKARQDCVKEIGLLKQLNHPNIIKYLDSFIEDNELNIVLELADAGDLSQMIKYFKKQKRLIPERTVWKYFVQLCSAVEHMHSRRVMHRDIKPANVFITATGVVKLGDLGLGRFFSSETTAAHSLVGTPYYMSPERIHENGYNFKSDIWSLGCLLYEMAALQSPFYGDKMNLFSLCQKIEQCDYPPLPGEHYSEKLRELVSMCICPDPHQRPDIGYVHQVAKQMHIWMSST
# Chain of UniProt Q86UX6 (whole entry, looked up): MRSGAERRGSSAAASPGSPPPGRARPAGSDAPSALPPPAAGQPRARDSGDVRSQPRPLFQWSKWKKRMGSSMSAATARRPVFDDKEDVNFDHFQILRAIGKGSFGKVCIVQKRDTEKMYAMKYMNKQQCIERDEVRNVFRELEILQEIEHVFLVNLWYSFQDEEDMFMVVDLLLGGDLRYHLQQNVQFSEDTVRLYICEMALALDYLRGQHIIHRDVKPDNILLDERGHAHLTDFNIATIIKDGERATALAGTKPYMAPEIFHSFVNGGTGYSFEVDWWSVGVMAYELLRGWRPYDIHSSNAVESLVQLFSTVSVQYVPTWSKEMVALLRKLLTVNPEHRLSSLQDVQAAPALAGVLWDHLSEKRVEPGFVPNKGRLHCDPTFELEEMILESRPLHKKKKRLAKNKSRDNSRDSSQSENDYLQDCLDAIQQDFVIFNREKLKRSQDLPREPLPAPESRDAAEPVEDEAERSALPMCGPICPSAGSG
Structure (SMILES),tested on,test,system,conditions,how to read,endpoint,result
O=C1NC(=O)c2c1c1cc(F)c[n+]3c1c1c2c2cc(O)ccc2[n]1[Ru-4]312([N]=C=S)[S+]3CC[S+]1CC[S+]2CC3 (stereo not shown),"PRKCA (Homo sapiens, UniProt P17252)",enzyme activity,,"100 nM, human enzyme, together with: 10 µM ATP",reference: untreated,remaining activity,94%
Cc1ccc2c(C(C[N+](=O)[O-])c3cccs3)c(-c3ccccc3)[nH]c2c1 (stereo not shown),"CNR1 (Homo sapiens, UniProt P21554, Y172A)","Gαi1-γ2 dissociation, BRET",,,,Emax,78.5 ± 2.35%
Nc1ccc(/C=C/C(=O)N2CCc3c(oc4c(-c5ccc(F)cc5)cc(-c5ccc(C(=O)N6CCC(F)(F)CC6)cn5)cc34)C2)cn1,"STK32C (Homo sapiens, UniProt Q86UX6)","binding, competition with immobilised ligand",,1 µM,,remaining binding,97%
O=C1NC2(CC2)COc2ncc(F)cc2[C@H]2COCCN2c2ccn3ncc1c3n2,,,"Sprague-Dawley rat, female, serum","oral, 20 mg/kg/day, end of recovery, 4-week subacute toxicity",,serum LDH activity,894 ± 397 U/L
CC(C)[C@H]1NC(=O)C[C@H]2/C=C/CCSSC[C@@H](NC1=O)C(=O)N[C@H](Cc1cccc3ccccc13)C(=O)NCC(=O)O2,"NEK6 (Homo sapiens, UniProt Q9HC98)","enzyme activity, inhibitor",,10 µM,,inhibition,15.8%
CS(C)(=O)=Nc1ccc(-c2ccc(-c3nc4cc(O[C@@H]5CO[C@H]6[C@@H]5OC[C@H]6O)[nH]c4cc3F)cc2)cc1,"ACVR1B (Homo sapiens, UniProt P36896)","enzyme activity, inhibitor",,10 µM,,inhibition,11%
CC(C)(C)C(=O)OCOP(=O)(OCOC(=O)C(C)(C)C)C1CCCN(O)C1=O (stereo not shown),NCI-H460,,,,,TGI,12.9 µM
COc1ccccc1C(C[N+](=O)[O-])c1c(-c2ccccc2)[nH]c2ccccc12 (stereo not shown),"CNR1 (Homo sapiens, UniProt P21554, N393A)",G protein activation,,,,delta log(tau/KA),-0.25 ± 0.03
CC(C)CC(C(=O)N1CC2(CC1C#N)C(=O)Nc1ccccc12)N(C)C(=O)c1cc2c(F)cc(F)c(F)c2[nH]1 (stereo not shown),Human coronavirus 229E,cytopathic effect,MRC5,5.6 nM,,inhibition,81%
CN(C)[C@H]1C[C@@]23CC[C@@]4(O2)C(=CC[C@]2(C)[C@@H](c5ccc6ccncc6c5)CC[C@H]24)C=C3[C@@H](O)[C@@H]1O,"LYN (Homo sapiens, UniProt P07948)","cell-free assay, inhibitor",,0.1 µM,,inhibition,-8.3%
Cc1sc2c(c1C)C(c1ccc(Cl)cc1)=N[C@@H](CC(=O)OC(C)(C)C)c1nnc(C)n1-2,"Bromodomain-containing protein 3, BD2 (BRD3, Homo sapiens, UniProt Q15059)",isothermal titration calorimetry,,"15 °C, reverse titration",,observed ΔH,-4.93 ± 0.017 kcal/mol
COc1ccccc1-c1n[nH]c2nc(NC3CCN(C(=O)Cc4ccc(F)cc4F)CC3)ncc12,,"bead binding, competition bead pull-down, refers to: LINJ.25.2450",Leishmania donovani axenic amastigote extract,10 µM,reference: vehicle,relative abundance,0.96
CSc1cc(C)[nH]c(=O)c1CNC(=O)c1c(C)n([C@H](C)C2CCN(CC(F)(F)F)CC2)c2ccccc12,"EZH2 (Homo sapiens, UniProt Q15910)",enzyme activity,,,,residence time,564 min

# Some of these lines once more:
Structure (SMILES),tested on,test,system,conditions,how to read,endpoint,result
COc1ccccc1C(C[N+](=O)[O-])c1c(-c2ccccc2)[nH]c2ccccc12 (stereo not shown),"CNR1 (Homo sapiens, UniProt P21554, N393A)",G protein activation,,,,delta log(tau/KA),-0.25 ± 0.03
